Assay results of several laboratories.
Compare with care: the assays were run in different laboratories.
Target: Carbonic anhydrase 2 (CA2, Homo sapiens, UniProt P00918)

SMILES = CCCCCCCCCCCC(=O)NC1CCOC1=O (stereo not shown); test = enzyme activity, inhibitor, stopped-flow; measurement = Ki; value = 66700 nM
SMILES = Cc1c(Cl)c(=O)oc2cc(OCCCCCCSC#N)ccc12; test = enzyme activity, inhibitor, stopped-flow; measurement = Ki; value = > 100000 nM
SMILES = NS(=O)(=O)c1ccc(CCN2C(=O)c3ccc(N4CCOCC4)cc3C2=O)cc1; test = binding; measurement = Kd; value = 250 nM
SMILES = N#CSCCCCCCOc1ccc2c(-c3ccccc3)cc(=O)oc2c1; test = enzyme activity, inhibitor, stopped-flow; measurement = Ki; value = > 100000 nM
SMILES = CC[C@H](C)[C@H](N)C(=O)NS(=O)(=O)CC(=O)N[C@@]1(C(=O)O)[C@@H](OC(=O)[C@@H](N)[C@@H](C)c2ccccc2)C[C@H]2C(C(N)=O)=CN(C)C[C@H]21; test = enzyme activity, inhibitor, absorbance; measurement = IC50; value = 1400 nM
SMILES = CCCCC1CCC(=O)O1 (stereo not shown); test = enzyme activity, inhibitor, stopped-flow; measurement = Ki; value = 78300 nM
SMILES = CN(C)c1ccc2c(c1)C(=O)N(Cc1ccc(S(N)(=O)=O)cc1)C2=O; test = binding; measurement = Kd; value = 150 nM
SMILES = CCCCCCC1CCCC(=O)O1 (stereo not shown); test = enzyme activity, inhibitor, stopped-flow; measurement = Ki; value = 52900 nM
SMILES = CN(C)c1ccc2c(c1)C(=O)N(c1ccc(S(N)(=O)=O)cc1)C2=O; test = binding; measurement = Kd; value = 170 nM
SMILES = C[C@@]1(C(=O)O)[C@@H](O)CC[C@]2(C)c3cc4c(cc3CC[C@@H]12)[nH]c1ccc(S(=O)(=O)n2c3ccccc3c3cc5c(cc32)CC[C@H]2[C@](C)(C(=O)O)[C@@H](O)CC[C@]52C)cc14; test = enzyme activity, inhibitor, absorbance; measurement = IC50; value = 1800 nM

Excerpt of the above:
SMILES = CCCCCCCCCCCC(=O)NC1CCOC1=O (stereo not shown); test = enzyme activity, inhibitor, stopped-flow; measurement = Ki; value = 66700 nM
SMILES = Cc1c(Cl)c(=O)oc2cc(OCCCCCCSC#N)ccc12; test = enzyme activity, inhibitor, stopped-flow; measurement = Ki; value = > 100000 nM
